Assay results from different studies.
Parts stem from different laboratories: compare values within a part only. Substitutions count along the parent as printed.

Block 1 — technique: protein binding microarray; molecule type: double-stranded DNA, one strand shown; matrix: in vitro; concentration: not given; baseline: not given; reading: higher = stronger binding
Target: Histone acetyltransferase KAT6A, winged helix 2, GST fusion (KAT6A, Homo sapiens, UniProt Q92794, residues 85-181)
Setting: 8-mer, flanks averaged, mean of 2 arrays, mostly near background
Construct (chain): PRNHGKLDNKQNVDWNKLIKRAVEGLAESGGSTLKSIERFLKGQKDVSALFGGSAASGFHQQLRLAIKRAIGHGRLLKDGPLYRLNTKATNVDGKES
The E-score of `GGTATCAC` is reported as -0.00376.
For `ATCTAGGC`, the E-score was -0.115.
With `ATACATGG` the E-score was -0.101.
`GAATAAAA` gave an E-score of -0.00679.
`ATGCCAAG` gave an E-score of -0.057.
For `GCCTGACA`, the E-score was -0.0947.
The E-score of `ATCTACCA` is reported as -0.0492.
The E-score of `CACGCATG` is reported as 0.0311.
`CTATGCGC` has an E-score of 0.0615.
`GAGAAGCA` gave an E-score of 0.0741.
`CGATCCCC` gave an E-score of -0.0424.
`CAAAATGG` has an E-score of -0.0595.
`ATTATCGG` has an E-score of -0.0103.

Block 2 — technique: RNA Bind-n-Seq; molecule type: RNA; matrix: in vitro; concentration: 365 nM; baseline: no-protein control; reading: higher = stronger binding
Target: RNA binding protein fox-1 homolog 2, RRM domain, GST-SBP tag (RBFOX2, Homo sapiens, UniProt O43251-10, residues 100-194)
Setting: natural RNA segment, single round, ends assumed
Constant ends, left off below: GGGAGUUCUACAGUCCGACGAUC … UGGAAUUCUCGGGUGCCAA
Target sequence (chain): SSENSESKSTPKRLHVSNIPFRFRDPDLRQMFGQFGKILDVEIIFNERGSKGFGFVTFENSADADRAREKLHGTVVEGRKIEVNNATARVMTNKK
`ACCAAUGGAAAACGGGGUUGGCCGUGGGAGAUGGGAUGAAGCGUUUACGUGAUUUUGGCGCACCCUGUAUACAUUUCAGAACUCCUGAUGGUAACGUGUCUGGAGUGUGG` — result for “RBNS enrichment (R)”: 0.507.
Under “RBNS enrichment (R)”, `GAUGAUGAUCCUAAUUACAUAAACACACACAUAUAUCUAGUGAUUUCUAAGGAUUUGUUUACUUUUUGUGUUCUGUUUUGCUGUAUUAAAAACUUGUCCUUUUCCUUAAA` is recorded as 0.25.
For `GUGCAGCCAGAGUGGCGCAGUGCACUAAGGUGCCGGCCGCCCUGCCUGCCCGGUGCCUCCCACUGACCUGAGCUUACUAAGGGAUGGCAGCAGCUCCCCAGAAAAAAACG`, “RBNS enrichment (R)” read 0.477.
`GGAACGGGAUUAAGUUUAAAACUUUCCCGUUUCUUUUUUGUUCGGUUGGUUUGGGUUUUUUUUUUUCUUUUUCUACUUUUAAAGUAUUUAAAUGCAAUUAUUUUUCUGCC`: “RBNS enrichment (R)” 0.849.
`AUACCGGAGUCUACCCUGCUUCACCAUCUCCCACCCUUAUACUGUCUCUGAUGAGUUAUGCUAAGUUCUAGUCUGAUUAUCCUCCUGGUUCCAUUUAAGGCCCUCAGAGA`: “RBNS enrichment (R)” 0.483.
For `CCCAUGCUGGCCAGGGGAACCCUCAGGGGACUCCUCUGGGUGAAGGGCAGAUGCUAGCACUGCCUGUUCUUAGUUCUCCUUCCAUUCCUGUCCUGAAGUUCUAACUGCCG`, “RBNS enrichment (R)” read 0.438.
`GAUACAUCCUUACCCCUAGAAGGGAAUUCCUCCACCAGGAAAGGGCUCACCACCCAUCUGCACAAGCUCAGUGCUGACCAGGGACCUGGGCUUCACAUUGGGUCCUGGCC` — result for “RBNS enrichment (R)”: 0.439.
Under “RBNS enrichment (R)”, `CCCUGAUCUGGGCCUUCCUGUCCCAGGGCCUAUGGGCAACUGCGUUGAAAGGACGUUCGCCAAGGGCCGUGUGUAAAUACGAACUGCGCCAUGGAGAGGAGAGGCACUGC` is recorded as 0.276.
`CCAAACUGCCCCCUAUAUGUAAAGUUCAGUUUAACCACUGAUUGCCUUGUUAUUACUAGGUUUUUUGAGAUUAAAAAAAAAAAAUCCCUGGUUUAAAACCAACAAUGAUG` — result for “RBNS enrichment (R)”: 0.719.
For `UGGAAAGGUGUUGGCGCUGAUGUAGCUCAUGGAAGGAUCAGACUGGGAACCACAGAGGAAGGAUGAGGUGGGAUGUGGAGGUCAGAGCAUCUCACGAGAGUCCCUCAGGC`, “RBNS enrichment (R)” read 1.02.
Under “RBNS enrichment (R)”, `AGCAGAUGACUACUUUUCGAAGUAAUGCUGCUCCUUCCUAAAAGUCUGUUUUCAAUCCUGGUAAUAUUAGGGGCACUGCGGCACCUAAGAAGCCUUAAAUGAGAGCUAAU` is recorded as 0.807.
`CCGCUGGGUCUGUGAGACAAAGUUGGAUAAGGCUAAUAGGAACCUUCCUUCCCCUCAUUUAUAUCCUUAAUUCCUUGAGCUGCUGAGGUUUAGAACUGGUAGAGCCUACC` — result for “RBNS enrichment (R)”: 0.371.

Block 3 — target: CCND1, cyclin fold, Cln2 fusion (human); technique: yeast growth competition, sequencing; matrix: yeast; setting: weak parent motif; baseline: not given; reading: higher = stronger binding
Starting sequence: MICAL3 docking peptide (human); LQLRRQLSFSEDS; partner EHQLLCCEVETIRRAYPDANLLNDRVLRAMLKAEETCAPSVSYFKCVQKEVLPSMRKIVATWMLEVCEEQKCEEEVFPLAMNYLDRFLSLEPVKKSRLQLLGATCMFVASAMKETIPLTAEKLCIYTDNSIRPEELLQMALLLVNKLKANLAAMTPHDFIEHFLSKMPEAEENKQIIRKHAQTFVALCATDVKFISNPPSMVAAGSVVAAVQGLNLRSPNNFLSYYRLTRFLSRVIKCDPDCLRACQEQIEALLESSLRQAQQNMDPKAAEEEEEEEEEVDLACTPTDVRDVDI
Under “normalised enrichment score”, `E11C` is recorded as 0.128.
`R4T` — result for “normalised enrichment score”: 0.0474.
For `L7W`, “normalised enrichment score” read 0.193.
`E11N` — result for “normalised enrichment score”: 0.365.
For `D12P`, “normalised enrichment score” read 0.394.
Under “normalised enrichment score”, `S8G` is recorded as -0.294.
`S8D`: “normalised enrichment score” 0.165.
`R4G`: “normalised enrichment score” 0.342.
`L7S` — result for “normalised enrichment score”: -0.0624.

Other studies, line by line
The fold induction of `PhoQ, residues 284 288 289 292 302 303 SCCLKL` is reported as 0.897 (PhoP, residues 12 14 15 18 19 LHHVQ (Escherichia coli, UniProt P23836); Sort-seq, item: YFP reporter; E. coli; PhoQ-PhoP variant library, together with: 10 µM Mg2+; baseline: high Mg2+ state, higher = stronger signaling).

Excerpt of the above (block 2):
`GAUACAUCCUUACCCCUAGAAGGGAAUUCCUCCACCAGGAAAGGGCUCACCACCCAUCUGCACAAGCUCAGUGCUGACCAGGGACCUGGGCUUCACAUUGGGUCCUGGCC` — result for “RBNS enrichment (R)”: 0.439.
For `UGGAAAGGUGUUGGCGCUGAUGUAGCUCAUGGAAGGAUCAGACUGGGAACCACAGAGGAAGGAUGAGGUGGGAUGUGGAGGUCAGAGCAUCUCACGAGAGUCCCUCAGGC`, “RBNS enrichment (R)” read 1.02.
